Published values pooled from the literature.
Each numbered part is a random draw from the data of one study; scales do not carry over between parts. Substitutions count along the parent as printed.

Set 1
Target: Interferon regulatory factor 5, full length, phosphomimetic (IRF5, Homo sapiens, UniProt Q13568-2, residues 1-514, S451D/S453D/S456D/S462D)
Method: protein-binding microarray
Form: double-stranded DNA, one strand shown
Matrix: in vitro
Concentration: 940 nM top
Notes: 60-bp whole probe
Added: salmon DNA 0.4 mg/ml
Reference: random background probes
Reading: higher = stronger binding
Endpoint: fitted relative affinity
Shared flanks, not repeated: GCCTAGCAC … GTCTTGATTCGCTTGACGCTGCTG
TTAGGACTGCTTATCCTTCAGTGCTAG: -0.411 z-score
GACGATTTCCGTTCCGAGACGTGCTAG: 0.496 z-score
TATTTTATATGCTATGTACTGGTGCTA: 0.146 z-score
TCAGATTTCAGTTTCTCACTGTGCTAG: 1.44 z-score
AGTTTTCTCATTCGTCATTTCGTGCTA: 3.28 z-score
TCAATTTTGTGTTTTCAACTGTGCTAG: 0.613 z-score
TTCCAGCTGGTGACTAGCGAGTGCTAG: 0.0538 z-score
TCATTATTAAAACTTCATACTGTGCTA: 0.98 z-score
CTTTCTATGTCTGTTTTTGCGTGCTAG: 1.81 z-score
ATTGCTTTCTCTTTCACTACGTGCTAG: 3.5 z-score
GACGGTCTCCTTATCCGGACGTGCTAG: 0.555 z-score
TTAGAACTGGGGTTTCGATCAGTGCTA: 4.73 z-score
TTAGGTCTTGGTTTCGGTTAGTGCTAG: 9.52 z-score
GACGATTTCGGATTTCGAGACGTGCTA: 0.794 z-score
TCATGGTTCTTGCTTGGTACTGTGCTA: 0.324 z-score
TTAGGACTGGTTCTCGGTTAGTGCTAG: 1.71 z-score
GAAGGTTTCGGACTGGGGACGTGCTAG: 5.12 z-score
GACGGTATCCACTTTCGGGACGTGCTA: 1.69 z-score
GTAGGACTGCTACTGCTTTAGTGCTAG: -0.681 z-score

Set 2
Target: Fragile X messenger ribonucleoprotein 1, C-terminal low-complexity region (Fmr1, Mus musculus, UniProt P35922)
Method: RNA Bind-n-Seq
Form: RNA
Matrix: in vitro
Concentration: 200 nM
Notes: whole 134-nt RNA, ends assumed
Added: 150 mM KCl
Reference: input library
Reading: higher = stronger binding
Endpoint: log2 enrichment
Shared flanks, not repeated: GGGAGUUCUACAGUCCGACGAUC … UGGAAUUCUCGGGUGUCAAGG
UCAAGUCCUGUGCUACACAUCGUAUGUACCGAAUCGGAAAGGUUUUUGGUUUGGAAAGUAUUAUGUUACGCCGUUCGGAUCUGCACUUCC: -0.881
CCUGUGCUACACAUCGUAUGUACCGAAUCGGAAAAAAGGGGAAAAAAGGGGAAAAAAGGGAAAGUAUUAUGUUACGCCGUUCGGAUCUGC: -0.409
CCUGUGCUACACAUCGUAUGUACCGAAUCGGGGCCCCCCCGGCCCCCCCGGCCCCCCCGGAAAGUAUUAUGUUACGCCGUUCGGAUCUGC: -0.177
AGUCCUGUGCUACACAUCGUAUGUACCGAAUCGGAAAAAGGAAAAAGGGAAAAAGGGGAAAGUAUUAUGUUACGCCGUUCGGAUCUGCAC: -0.463
GUCCUGUGCUACACAUCGUAUGUACCGAAUCAAACCCCCCCAAAUUUUUAAACCCAAAAAAGUAUUAUGUUACGCCGUUCGGAUCUGCAC: 0.103
UGUGCUACACAUCGUAUGUACCGAAUCGGGGUUUUUUUGGGGUUUUUUUGGGGAAAAAGGGGAAAGUAUUAUGUUACGCCGUUCGGAUCU: 0.203
AGUCCUGUGCUACACAUCGUAUGUACCGAAUCGGGUUUUUGGGUGGGAAAAAAAGGGAAAGUAUUAUGUUACGCCGUUCGGAUCUGCACU: 0.291
UAACUUUAGAGGAGGAUCUGAUGGAUAUGGCAGUGGACGUGGAUUUGGGGAUGGCUAUAAUGAGUAUGGAGGAGGACCUGGAGGUGGCAA: 0.24
AGUCCUGUGCUACACAUCGUAUGUACCGAAUCGGUUUUUGGUUUUUGGGUUUUUGGGGAAAGUAUUAUGUUACGCCGUUCGGAUCUGCAC: -0.363

Set 3
Target: CCNA1, cyclin fold, Cln2 fusion (human)
Method: yeast growth competition, sequencing
Matrix: yeast
Notes: weak parent motif
Reference: not given
Reading: higher = stronger binding
Endpoint: normalised enrichment score
Starting sequence: CDC6 docking peptide (human); TLKGRRLVFDNQL; partner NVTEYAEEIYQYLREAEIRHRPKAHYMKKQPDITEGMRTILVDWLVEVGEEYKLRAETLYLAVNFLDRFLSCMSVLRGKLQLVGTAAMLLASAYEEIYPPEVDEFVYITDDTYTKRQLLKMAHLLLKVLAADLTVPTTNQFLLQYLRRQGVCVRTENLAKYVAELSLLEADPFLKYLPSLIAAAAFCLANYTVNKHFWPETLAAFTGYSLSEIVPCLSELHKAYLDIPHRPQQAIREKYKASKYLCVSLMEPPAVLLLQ
TLKGRRLMFDNQL [V8M]: 0.111
TLKGRRLSFDNQL [V8S]: 0.139
TLKGRRLVFDNVL [Q12V]: 0.15
TLKGRRLVKDNQL [F9K]: 0.705
TLKGRRLVCDNQL [F9C]: -0.0148
TLKGMRLVFDNQL [R5M]: -0.0843
TLKGRRLVFDCQL [N11C]: 0.385
PLKGRRLVFDNQL [T1P]: 0.274
TLKGRGLVFDNQL [R6G]: -0.00799
TLKGRCLVFDNQL [R6C]: 0.285
TLKGRRLVFDNQE [L13E]: 0.241
HLKGRRLVFDNQL [T1H]: 0.128
TLKGRLLVFDNQL [R6L]: 0.419
TLKGRRLNFDNQL [V8N]: 0.32
TLHGRRLVFDNQL [K3H]: 0.0369
TLKGRRLVFDNQC [L13C]: 0.289
TLDGRRLVFDNQL [K3D]: 0.0661
TLKGRRLRFDNQL [V8R]: 0.373
TLKGRRLVFFNQL [D10F]: 0.312
TLKGRRLVFDMQL [N11M]: 0.154
TLKGRRLVFENQL [D10E]: -0.0915
TLKGRRLVFDPQL [N11P]: 0.327
TLKGRRLVFDVQL [N11V]: 0.209
TLKGRKLVFDNQL [R6K]: 0.241
TLKCRRLVFDNQL [G4C]: 0.553

Set 4
Target: ABI1, truncated, D143A, DHFR fusion (Arabidopsis thaliana)
Method: DHFR PCA, deep sequencing
Matrix: yeast
Notes: methotrexate growth selection, single substitutions
Added: (+)-ABA 0.032 µM
Reference: wild-type fitted maximum
Reading: higher = stronger binding
Endpoint: relative binding score
Starting sequence: PYL1, truncated, DHFR fusion (Arabidopsis thaliana); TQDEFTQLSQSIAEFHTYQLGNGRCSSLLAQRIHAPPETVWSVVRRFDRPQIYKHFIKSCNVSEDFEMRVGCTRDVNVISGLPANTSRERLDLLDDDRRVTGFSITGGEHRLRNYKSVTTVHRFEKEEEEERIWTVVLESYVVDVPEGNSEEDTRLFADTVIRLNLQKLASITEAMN; partner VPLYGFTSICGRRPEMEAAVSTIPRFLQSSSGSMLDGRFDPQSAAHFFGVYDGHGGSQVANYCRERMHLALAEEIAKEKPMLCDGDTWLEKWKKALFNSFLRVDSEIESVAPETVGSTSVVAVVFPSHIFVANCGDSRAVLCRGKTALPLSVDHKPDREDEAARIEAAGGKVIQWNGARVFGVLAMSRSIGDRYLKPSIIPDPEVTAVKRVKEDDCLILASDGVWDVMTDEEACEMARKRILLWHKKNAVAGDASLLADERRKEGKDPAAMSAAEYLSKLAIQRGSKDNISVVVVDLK
P146V: 27.2%
V62R: -2.49%
E174M: -5.54%
I57V: 13.8%
S42I: -6.25%
A30E: 0.273%
F47D: -0.477%
E64I: 6.62%
T1Y: 24.2%
E139Q: 20%
T17A: -2.03%
S26F: -7.96%
V137K: 0.995%
G148N: -7.15%
M176H: 5.74%
N177K: 23.9%

Excerpt of the above (set 3):
TLKGRLLVFDNQL [R6L]: 0.419
TLKGRRLNFDNQL [V8N]: 0.32
TLHGRRLVFDNQL [K3H]: 0.0369
TLKGRRLVFDNQC [L13C]: 0.289
TLDGRRLVFDNQL [K3D]: 0.0661
TLKGRRLRFDNQL [V8R]: 0.373
TLKGRRLVFFNQL [D10F]: 0.312
TLKGRRLVFDMQL [N11M]: 0.154
TLKGRRLVFENQL [D10E]: -0.0915
